Experimental data pooled from the literature.
Parts stem from different laboratories: compare values within a part only. Substitutions count along the parent as printed.

Study 1
Target: CCNA1, cyclin fold, Cln2 fusion (human)
Method: yeast growth competition, sequencing
Matrix: yeast
Notes: weak parent motif
Relative to: not given
Direction: higher = stronger binding
Parent: BRCA2 docking peptide (human); PSIKRNLLNEFDR; partner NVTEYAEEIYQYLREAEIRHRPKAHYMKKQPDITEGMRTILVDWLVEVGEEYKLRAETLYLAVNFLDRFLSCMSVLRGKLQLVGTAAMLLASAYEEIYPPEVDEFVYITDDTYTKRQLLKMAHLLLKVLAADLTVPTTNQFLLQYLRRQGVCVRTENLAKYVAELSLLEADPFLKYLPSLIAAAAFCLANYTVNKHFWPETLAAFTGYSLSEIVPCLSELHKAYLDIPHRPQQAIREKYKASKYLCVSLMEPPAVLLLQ
Variant | normalised enrichment score
R13E | 0.7
R13S | 0.642
L7N | 0.176
L7F | 0.293
P1Y | 0.753
F11P | 0.321
F11I | 0.928
S2L | 0.73
I3K | 0.579
N6R | 0.252
D12K | 0.274
P1N | 0.591
K4L | 0.104
N6P | 0.707
D12I | 0.103
R13M | 0.477
E10F | 0.141
L8V | 0.443
N9H | 0.46
N9I | 0.573
N9R | 0.646
F11A | 0.692
S2F | 0.304
N9W | 0.576
R13N | 0.617

Study 2
Target: Prothrombin, mature alpha-thrombin (F2, Homo sapiens, UniProt P00734)
Method: aptamer microarray, sandwich
Molecule type: DNA with 2'F-ANA
Matrix: in vitro
Tested at: 200 nM
Notes: whole 15-mer aptamer, many near background
With: Cy3 exosite-II aptamer, 400 nM
Direction: higher = stronger binding
Sequence: GGTTGGTGTGGTTGG
Modification | mean fluorescence intensity
2'F-ANA at 1 3 5 9 10 | 51.3 a.u.
2'F-ANA at 1 2 4 5 7 8 9 10 11 12 14 | 48 a.u.
2'F-ANA at 2 3 4 5 6 8 12 14 | 79.5 a.u.
2'F-ANA at 1 2 5 6 8 10 | 44 a.u.
2'F-ANA at 1 4 6 7 10 11 12 14 | 75.8 a.u.
2'F-ANA at 2 4 7 8 9 10 13 15 | 83.5 a.u.
2'F-ANA at 4 5 11 13 14 15 | 46.7 a.u.
2'F-ANA at 1 3 5 6 7 10 12 14 | 46.4 a.u.
2'F-ANA at 1 5 7 10 11 12 14 15 | 122 a.u.
2'F-ANA at 1 2 3 4 6 7 8 12 13 15 | 232 a.u.
2'F-ANA at 1 7 9 12 14 | 66.1 a.u.
2'F-ANA at 1 2 5 6 9 11 14 15 | 49.8 a.u.
2'F-ANA at 2 3 7 8 13 15 | 752 a.u.
2'F-ANA at 1 3 4 5 6 7 9 13 14 15 | 48.5 a.u.
2'F-ANA at 3 4 6 7 8 10 11 12 13 | 259 a.u.
2'F-ANA at 1 3 4 5 6 15 | 59.4 a.u.
2'F-ANA at 1 2 5 6 7 11 15 | 57.2 a.u.
2'F-ANA at 3 4 6 7 9 10 11 12 13 | 207 a.u.
2'F-ANA at 3 6 7 9 12 13 14 15 | 489 a.u.
2'F-ANA at 1 2 3 7 8 9 10 11 13 14 | 55.2 a.u.
2'F-ANA at 1 3 5 6 7 13 14 | 96.5 a.u.
2'F-ANA at 2 4 5 7 8 9 13 14 | 78.6 a.u.
2'F-ANA at 1 4 6 10 12 | 57.5 a.u.
2'F-ANA at 2 6 9 14 15 | 122 a.u.
2'F-ANA at 1 2 3 4 6 8 9 12 14 | 74.2 a.u.

Study 3
Target: Interferon regulatory factor 7, full length, phosphomimetic (IRF7, Homo sapiens, UniProt Q92985, residues 1-503, S471D/S472D/S475D/S476D/S477D/S483D/S484D/S487D)
Method: protein-binding microarray
Molecule type: double-stranded DNA, one strand shown
Matrix: in vitro
Tested at: 2200 nM top
Notes: 60-bp whole probe
With: salmon DNA 0.4 mg/ml
Relative to: random background probes
Direction: higher = stronger binding
Shared flanks, not repeated: GCCTAGCAC … GTCTTGATTCGCTTGACGCTGCTG
Target sequence (chain): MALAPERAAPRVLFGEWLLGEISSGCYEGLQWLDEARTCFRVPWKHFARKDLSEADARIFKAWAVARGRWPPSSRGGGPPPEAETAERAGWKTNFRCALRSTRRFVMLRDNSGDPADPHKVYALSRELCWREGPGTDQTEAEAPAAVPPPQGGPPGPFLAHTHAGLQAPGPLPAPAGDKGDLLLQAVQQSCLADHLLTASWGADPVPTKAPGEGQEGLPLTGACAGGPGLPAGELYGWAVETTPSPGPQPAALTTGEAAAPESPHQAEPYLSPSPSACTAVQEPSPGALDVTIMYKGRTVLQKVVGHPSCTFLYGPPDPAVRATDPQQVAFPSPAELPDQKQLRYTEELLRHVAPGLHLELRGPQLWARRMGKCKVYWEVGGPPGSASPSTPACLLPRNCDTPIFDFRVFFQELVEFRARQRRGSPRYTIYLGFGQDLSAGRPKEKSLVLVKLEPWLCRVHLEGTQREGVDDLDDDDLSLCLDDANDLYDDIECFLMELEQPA
Sequence | fitted relative affinity [z-score]
TTAGAACTGGGTCTCGGTTAGTGCTAG | 0.179
TTAGGACTGGGTCACGGTTAGTGCTAG | -0.641
GACGGTATCGGGTATAGGGACGTGCTA | -0.201
CTAATTTTCAATTCCTGAAAGTGCTAG | 2.03
CAGAAAATGGAAACTCGTATGGTGCTA | 0.693
ATGCCCCCCAAGAGGGGCGGGTGCTAG | -0.543
TTAGGCATCGGTTTCGGTTAGTGCTAG | 6.3
TGGGATTTTCCCATGAGTCTGTGCTAG | 0.261
TTAGATTTAGGGACTGGATTAGTGCTA | -0.661
GACGGCCTGCTTCTCCTGACGTGCTAG | 0.591
ATGAAGTTCTTTTTTTCAAGGTGCTAG | 0.288
TTAGGTTTCCTTTTACTTTAGTGCTAG | 4.54
TTAGGACTGGGGTATCGGATAGTGCTA | -0.569
TTTGGTTTGTACACCGCCTTGTGCTAG | 1.6
GACGGTATCCTTTTCCTGAGGTGCTAG | 0.859
GACGGTCTTCTTCTCCTGACGTGCTAG | 1.14
TCATGTTTACATATGTTACTGTGCTAG | 1.66
TTAGGTATCGACTTCCGGTTAGTGCTA | 1.69
GAAGATTTCGGGTTTCGAGACGTGCTA | 5.06
TTAGGTATCCTACTGCTTTAGTGCTAG | 0.63
GACGATCTCAGTATTGAGACGTGCTAG | 0.00341
GGCGGACTGGACTATCGGGACGTGCTA | -1.31
TCACATCTTCCTCTGCCACTGTGCTAG | 2.22
TTAGGATCCGGTTTCGGTTAGTGCTAG | 7.17
GACGGTTTCGGGTATCAGGACGTGCTA | 5.89

Study 4
Target: Histone acetyltransferase KAT6A, winged helix 1, GST fusion (KAT6A, Homo sapiens, UniProt Q92794, residues 1-85)
Method: protein binding microarray
Molecule type: double-stranded DNA, one strand shown
Matrix: in vitro
Tested at: not given
Notes: 8-mer, flanks averaged, mean of 2 arrays, mostly near background
Relative to: not given
Direction: higher = stronger binding
Residues (chain): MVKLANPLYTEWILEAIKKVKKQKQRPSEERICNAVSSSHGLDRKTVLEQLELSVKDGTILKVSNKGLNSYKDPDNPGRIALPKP
Sequence | E-score
CATATATC | -0.0911
ATGGAAGA | -0.212
CGAACATC | 0.0777
ATAGGTGA | -0.256
GATATACA | 0.0345
AAGTACAT | -0.0938
ATCTAAAT | -0.128
CAATAAGC | 0.125
ACTGGCGG | 0.252
GACTAGCC | 0.0525
GAGGCCAC | -0.0485
AATGGTTA | -0.102
CATTGGAC | -0.0836
AACAGCCC | -0.0657
GAACGAAA | -0.148
AACGGATC | -0.0485
ACTGCTCG | -0.132
AACAGATG | -0.288
GGGTACTA | -0.0392
GTTAGGCA | -0.169
ACGCCGAC | 0.387
CTCAGAAA | -0.16
CCGCACAA | 0.163
ATTTAGGG | 0.00771

Study 5
Target: Sal-like protein 4, full length isoform A (SALL4, Homo sapiens, UniProt Q9UJQ4, residues 1-1053)
Sequence of UniProt Q9UJQ4 (whole entry, looked up): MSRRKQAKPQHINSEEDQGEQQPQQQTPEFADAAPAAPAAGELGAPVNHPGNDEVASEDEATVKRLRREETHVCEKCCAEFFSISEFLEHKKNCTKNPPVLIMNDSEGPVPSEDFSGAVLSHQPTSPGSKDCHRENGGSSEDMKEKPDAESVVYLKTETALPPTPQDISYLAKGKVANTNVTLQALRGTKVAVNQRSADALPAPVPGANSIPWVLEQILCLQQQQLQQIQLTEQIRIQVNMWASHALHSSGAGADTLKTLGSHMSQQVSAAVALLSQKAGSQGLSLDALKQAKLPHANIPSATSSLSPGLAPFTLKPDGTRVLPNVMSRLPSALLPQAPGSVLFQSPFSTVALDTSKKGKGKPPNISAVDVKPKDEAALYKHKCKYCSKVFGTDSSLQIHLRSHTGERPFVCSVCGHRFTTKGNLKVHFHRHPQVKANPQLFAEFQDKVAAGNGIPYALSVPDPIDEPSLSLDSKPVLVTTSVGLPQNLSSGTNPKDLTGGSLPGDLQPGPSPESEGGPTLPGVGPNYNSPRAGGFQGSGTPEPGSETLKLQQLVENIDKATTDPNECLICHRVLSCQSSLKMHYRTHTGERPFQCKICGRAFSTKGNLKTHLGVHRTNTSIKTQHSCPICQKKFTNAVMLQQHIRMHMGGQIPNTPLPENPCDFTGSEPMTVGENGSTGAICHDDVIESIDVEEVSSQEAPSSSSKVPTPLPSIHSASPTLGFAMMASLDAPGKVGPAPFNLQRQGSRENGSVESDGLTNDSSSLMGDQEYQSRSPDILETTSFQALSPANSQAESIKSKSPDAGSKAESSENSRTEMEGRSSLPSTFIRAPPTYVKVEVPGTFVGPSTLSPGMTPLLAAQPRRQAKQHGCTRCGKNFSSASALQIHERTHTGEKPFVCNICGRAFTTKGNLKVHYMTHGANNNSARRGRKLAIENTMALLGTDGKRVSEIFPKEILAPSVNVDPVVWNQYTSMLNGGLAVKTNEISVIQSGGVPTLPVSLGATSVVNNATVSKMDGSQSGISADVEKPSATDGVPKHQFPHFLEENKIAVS
Method: universal PBM
Molecule type: double-stranded DNA, one strand shown
Matrix: in vitro
Tested at: 600 nM
Notes: 8-mer, flanks averaged, mean of replicates
Direction: higher = stronger binding
Sequence | E-score
GATATCCC | 0.000915
GCTTGAGA | -0.0636
CTAGTAAA | 0.238
ATTCTTCA | 0.155
GCTCGCCC | -0.35
ACCGCTCA | -0.0709
AGTTTAAG | 0.0706
ACCAACTG | -0.12
CCACTTAA | 0.0474
AAGTGTTG | 0.178
GTCTCCGA | -0.16
CGGCTTCA | 0.0311
CGGATATA | 0.187
CAGATACA | 0.18
AGCTAGAA | 0.0238
GGGTCATA | 0.161
ATGAAATG | 0.205
AAAGATGC | 0.0133
AGTCGGAT | 0.105
ACTGAAAC | 0.165
ATCGATCA | 0.154
TAACGAGA | 0.201
GGATAGGA | -0.11

Repeated from above (study 4):
Sequence | E-score
GAGGCCAC | -0.0485
ATAGGTGA | -0.256
CGAACATC | 0.0777
AACAGCCC | -0.0657
ATGGAAGA | -0.212
ACTGCTCG | -0.132
GTTAGGCA | -0.169
AAGTACAT | -0.0938
AACGGATC | -0.0485
GATATACA | 0.0345
CATTGGAC | -0.0836
GGGTACTA | -0.0392
AACAGATG | -0.288
CTCAGAAA | -0.16
CCGCACAA | 0.163
CAATAAGC | 0.125
GAACGAAA | -0.148
